Published values of several laboratories.
Protocols differ between the studies behind these lines. ± marks the error that the study gave.
B1: acetylcholinesterase; chain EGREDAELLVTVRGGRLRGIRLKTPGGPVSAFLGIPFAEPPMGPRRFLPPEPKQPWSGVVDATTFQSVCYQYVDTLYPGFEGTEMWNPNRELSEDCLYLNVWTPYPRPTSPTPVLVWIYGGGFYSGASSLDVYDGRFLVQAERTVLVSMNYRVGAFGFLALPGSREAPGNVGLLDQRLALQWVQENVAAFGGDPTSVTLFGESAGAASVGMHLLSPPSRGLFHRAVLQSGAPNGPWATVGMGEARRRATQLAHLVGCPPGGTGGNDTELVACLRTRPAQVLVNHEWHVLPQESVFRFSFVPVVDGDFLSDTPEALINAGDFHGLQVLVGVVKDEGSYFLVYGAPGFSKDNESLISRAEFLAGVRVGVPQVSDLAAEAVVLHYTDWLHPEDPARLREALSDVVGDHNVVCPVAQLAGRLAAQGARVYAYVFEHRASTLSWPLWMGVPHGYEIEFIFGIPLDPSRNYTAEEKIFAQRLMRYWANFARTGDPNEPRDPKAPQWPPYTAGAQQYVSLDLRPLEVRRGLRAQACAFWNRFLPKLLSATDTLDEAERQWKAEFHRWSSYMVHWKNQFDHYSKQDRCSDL

| Substance | target or system | assay | system | conditions | scale | quantity | result |
| --- | --- | --- | --- | --- | --- | --- | --- |
| O=C(c1ccc(F)cc1)N1CCC[C@H](c2nc(-c3ccc(F)cc3)no2)C1 | mGluR5 | calcium fluorescence, positive allosteric modulator | mGluR5-expressing cells | added: glutamate EC20 | relative to: maximal glutamate response | Emax | 107 ± 5% |
| B1 (acetylcholinesterase) | amyloid oligomers | ELISA, LOC capture | A549 conditioned medium | – | relative to: mouse IgG | complex formation | binds |
| pepstatin A | Candida albicans Bar1 protease | inhibitor | – | 100 µM, 90 min, pH 6.5, 37 °C | – | inhibition | no inhibition |
| Clc1ccccc1C(c1ccccc1)(c1ccccc1)n1cccn1 | mouse BK channel | whole-cell patch clamp | mouse parotid acinar cells | 1 µM, +50 mV, added: DCEBIO 10 µM | relative to: control | BK current | 95% |
| C=C(C)C(=O)OCCOC(=O)C(=C)C | cysteine peptide Ac-RFAACAA-COOH | RapidFire MS DPRA | – | lowest to highest concentration | – | peptide depletion span | -60.3% |
| Brc1ccccc1-c1ccccc1Br | aequorin, Aequorea victoria | bioluminescence, inhibitor | – | 1.0×100 µM, added: coelenterazine | relative to: no inhibitor | inhibition | 43% |
| C[C@H](NC(=O)Cc1cc(F)cc(F)c1)C(=O)N[C@H]1N=C(c2ccccc2)c2ccccc2N(C)C1=O | γ-secretase | inhibitor, microdialysis | J20 hAPP transgenic mice, 24 months, hippocampal interstitial fluid | intraperitoneal, 3 mg/kg | – | half-life of Aβ38 decline | ~1.9 h |
| C=C(C)[C@H]1Cc2c(ccc3c2O[C@@H]2COc4cc(OC)c(OC)cc4[C@@H]2C3=O)O1 | complex I rat | reverse electron transport | isolated mitochondria | added: succinate 5 mM, glutamate 0.5 mM | – | highest ineffective concentration | 0.02 µM |
| CCO/N=C(\C(=O)N[C@@H]1C(=O)N2C(C(=O)[O-])=C(Sc3nc(-c4cc[n+](C)cc4)cs3)CS[C@H]12)c1nsc(N)n1 | Neisseria gonorrhoeae PBP2 H041 | – | – | 1 h, pH 8.0, room temperature, added: Bocillin-FL competitor | – | acylation rate constant k2/Ks | 10900 ± 1700 M⁻¹ s⁻¹ |
| CN[C@@](C)(C[18F])C(=O)O | – | – | SCID mouse MDA-MB-468 xenograft, spleen | 60 min, post injection | – | tissue uptake | 9.3 ± 1.3 %ID/g |
| CO/N=C(\C(=O)N[C@@H]1C(=O)N2C(C(=O)O)=C(CSc3nc(=O)c(=O)[nH]n3C)CS[C@H]12)c1csc(N)n1 | Neisseria gonorrhoeae PBP2 H041 | – | – | 1 h, pH 8.0, room temperature, added: Bocillin-FL competitor | – | acylation rate constant k2/Ks | 1710 ± 320 M⁻¹ s⁻¹ |
| C=Cc1ccccn1 | cysteine peptide Ac-RFAACAA-COOH | DPRA RapidFire-MS/MS | – | 24 h, pH 7.5, added: 5.0 µM cysteine peptide | – | peptide depletion | inactive |
| Clc1ccc(C(c2ccc(Cl)cc2)C(Cl)(Cl)Cl)cc1 | estrogen receptor alpha (human) | luciferase reporter gene, agonist | BG1Luc4E2 | 10 µM, 24 h | relative to: maximum of estradiol | efficacy | 19 ± 5% |
| O=C(O[C@@H]1Cc2c(O)cc(O)cc2O[C@@H]1c1cc(O)c(O)c(O)c1)c1cc(O)c(O)c(O)c1 | alpha-synuclein | thioflavin T fluorescence | – | 2 molar equivalents, pH 6.6, 37 °C, added: HFIP 2 vol-% | relative to: uninhibited control | amyloid formation | 22 ± 7% |

A few entries again:
| Substance | target or system | assay | system | conditions | scale | quantity | result |
| --- | --- | --- | --- | --- | --- | --- | --- |
| Clc1ccc(C(c2ccc(Cl)cc2)C(Cl)(Cl)Cl)cc1 | estrogen receptor alpha (human) | luciferase reporter gene, agonist | BG1Luc4E2 | 10 µM, 24 h | relative to: maximum of estradiol | efficacy | 19 ± 5% |
